Experimental data gathered from unrelated publications.
Lines come from different studies, so protocols differ.
Organism: Klebsiella pneumoniae

C[C@@H](O)[C@H]1C(=O)N2C(C(=O)O)=C(SCCN=CN)C[C@H]12 — MIC (NCCP 15864 carbapenem-resistant, Mueller-Hinton broth; 16 h, 37 °C): 8 µM
C[C@@H](O)[C@H]1C(=O)N2C(C(=O)O)=C(S[C@@H]3CN[C@H](C(=O)N(C)C)C3)[C@H](C)[C@H]12 — MIC (broth microdilution; KPC-127 producing): 4 µg/mL
CC1(C)CC[C@]2(C(=O)O)CC[C@]3(C)C(=CC[C@@H]4[C@@]5(C)CC[C@H](O)C(C)(C)[C@@H]5CC[C@]43C)[C@@H]2C1 — MIC (QD-KP2, NDM-1): 512 µg/mL
CCCCCC(=O)N[C@@H](CCCCN)C(=O)N[C@@H](CCCCN)C(=O)N[C@@H](C)C(=O)N[C@@H](CC(C)C)C(=O)N[C@@H](CCCCN)C(=O)N[C@@H](CC(C)C)C(=O)N[C@@H](C)C(=O)N[C@@H](CCCCN)C(=O)N[C@@H](CCCCN)C(=O)N1CCC[C@H]1C(=O)N[C@@H](CC(C)C)C(=O)N[C@@H](CCCCN)C(=O)N[C@@H](CC(C)C)C(=O)N[C@@H](CC(C)C)C(=O)N[C@@H](CCCCN)C(N)=O — MIC (broth microdilution; ATCC 700603; 18 h, 37 °C, compound alone): > 80 µM
C[C@@H](O)[C@H]1C(=O)N2C(C(=O)O)=C(S[C@@H]3CN[C@H](C(=O)N(C)C)C3)[C@H](C)[C@H]12 — MIC (ATCC 700603 ESBL SHV-18): 0.03 µg/mL
NC(=O)[C@@H]1CC[C@@H]2CN1C(=O)N2OS(=O)(=O)O — MIC (broth microdilution; ATCC 1706, ESBL, NDM; compound alone): 16 µg/mL
Cc1ncc(O)c2c1C[C@H]1C[C@H]3[C@H](N(C)C)C(O)=C(C(N)=O)C(=O)[C@@]3(O)C(O)=C1C2=O.Cl.Cl — MIC (tet(A)-carrying): > 32 µg/mL
CC[C@H](C)[C@H](NC(=O)[C@@H](NC(=O)[C@H](Cc1ccccc1)NC(=O)CNC(=O)[C@H](CCC(N)=O)NC(=O)[C@H](CCCCN)NC(=O)[C@H](C)N)C(C)C)C(=O)N[C@@H](Cc1ccc(O)cc1)C(=O)N[C@@H](CCCNC(=N)N)C(=O)N[C@H](C(=O)N[C@@H](CCCNC(=N)N)C(=O)N[C@H](C(=O)N[C@@H](CCCNC(=N)N)C(=O)N[C@@H](CCCNC(=N)N)C(=O)NCC(=O)N[C@@H](CC(N)=O)C(=O)N[C@@H](CCCNC(=N)N)C(=O)N[C@@H](CCCCN)C(N)=O)C(C)C)C(C)C — MIC (broth dilution; ATCC 700603): 25 µM
CC(C)C[C@H](NC(=O)[C@H](C)NC(=O)[C@@H](NC(=O)[C@H](CCCNC(=N)N)NC(=O)[C@H](CC(C)C)NC(=O)[C@H](Cc1c[nH]c2ccccc12)NC(=O)[C@@H]1CCCN1C(=O)[C@@H](N)CCCCN)C(C)C)C(=O)N[C@@H](CS)C(=O)N1CCC[C@H]1C(=O)NCC(=O)O — MIC (broth microdilution; B): 64 µM
CCN1CCN(C(=O)N[C@@H](C(=O)N[C@@H]2C(=O)N3[C@@H]2SC(C)(C)[C@@H]3C(=O)O)c2ccccc2)C(=O)C1=O — MIC (broth microdilution; ATCC 43816 acrAB overexpressor; together with: colistin 0.5 mg/L): 4 µg/mL
